Measurements pooled from the literature.
Lines come from different studies, so protocols differ. Values joined by “and” are separate records of one study, mostly repeats; a detail may differ.
Target: Ephrin type-A receptor 7 (EPHA7, Homo sapiens, UniProt Q15375)
Sequence of UniProt Q15375 (whole entry, looked up): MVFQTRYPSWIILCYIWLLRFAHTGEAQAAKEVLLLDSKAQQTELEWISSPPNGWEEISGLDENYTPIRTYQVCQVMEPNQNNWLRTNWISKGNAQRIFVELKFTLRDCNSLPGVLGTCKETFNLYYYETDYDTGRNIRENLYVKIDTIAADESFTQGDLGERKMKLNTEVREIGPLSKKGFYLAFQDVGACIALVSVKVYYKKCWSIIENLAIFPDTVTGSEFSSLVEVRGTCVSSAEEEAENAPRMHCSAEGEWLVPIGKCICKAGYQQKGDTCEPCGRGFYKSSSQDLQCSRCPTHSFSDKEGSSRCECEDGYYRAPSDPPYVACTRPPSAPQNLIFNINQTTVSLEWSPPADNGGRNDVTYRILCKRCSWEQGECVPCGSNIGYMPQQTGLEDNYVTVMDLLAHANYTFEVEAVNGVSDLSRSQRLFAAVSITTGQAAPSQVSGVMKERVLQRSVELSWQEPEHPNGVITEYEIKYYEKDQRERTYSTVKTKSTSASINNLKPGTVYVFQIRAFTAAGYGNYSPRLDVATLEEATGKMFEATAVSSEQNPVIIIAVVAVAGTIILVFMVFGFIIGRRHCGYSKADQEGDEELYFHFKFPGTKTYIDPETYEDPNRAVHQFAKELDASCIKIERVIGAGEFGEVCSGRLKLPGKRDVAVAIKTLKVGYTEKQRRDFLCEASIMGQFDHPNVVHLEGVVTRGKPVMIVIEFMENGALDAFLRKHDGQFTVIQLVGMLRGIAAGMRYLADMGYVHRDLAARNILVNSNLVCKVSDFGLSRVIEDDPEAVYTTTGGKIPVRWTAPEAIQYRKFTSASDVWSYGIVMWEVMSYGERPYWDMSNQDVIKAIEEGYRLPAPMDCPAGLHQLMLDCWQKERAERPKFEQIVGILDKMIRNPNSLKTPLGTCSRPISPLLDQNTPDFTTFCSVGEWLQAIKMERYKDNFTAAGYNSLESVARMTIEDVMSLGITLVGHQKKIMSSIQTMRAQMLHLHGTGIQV

For `CNC(=O)C[C@H](Cc1ccc(C#N)cc1)NC(=O)c1cc(-c2ccc(CN[C@H](C)c3ccc(C)cc3)o2)ccc1Cl`, “activity vs control” read 112% (enzyme activity, inhibitor; 1 µM).
For `Cc1ccc(-c2c(/C=C(\C#N)C(=O)NC(C)C)n(CCCO)c3ncnc(N)c23)cc1`, the remaining binding was 82% (cell-free assay, competition with immobilised ligand; 1 µM).
`CCN1CCN(Cc2ccc(C(=O)Nc3ccc(C)c(NCc4cnc5[nH]ccc5c4OC)c3)cc2C(F)(F)F)CC1` has a remaining binding of 100% (binding, competition with immobilised ligand; 1 µM).
The inhibition of `CN1CCN(Cc2ccc(-c3ccc(CO[C@H]4CCC[C@@H]4NC(=O)c4cc(-c5cnn(C)c5)cnc4N)cc3)cc2)CC1` is reported as 3% (enzyme activity, inhibitor; 0.1 µM).
With `COc1cc(Nc2nccc(-c3cnn4nc(OC)ccc34)n2)cc(C(F)(F)F)c1` the remaining binding was 99% (binding, competition with immobilised ligand; 1 µM).
`CNC1C[S+]2CC[S+]3CC[S+](C1)[Ru-4]321([N]=C=S)[n]2c3ccc(OC)cc3c3c4c(c5cc(F)c[n+]1c5c32)C(=O)NC4=O` (stereo not shown) gave a remaining binding of 99% (KinomeScan; 0.1 µM; relative to: untreated).
`CN1CC[C@@H](COc2cnc(C#N)cc2-c2ccn3nc(NC(=O)C4CC4)cc3c2)C1` gave an inhibition of -6% (enzyme activity, inhibitor; 1 µM).
For `CC(C)=CC1OC(C)(C)C2C=C3C(=O)C(Cl)=CC(O)C3C3C(O)C4OC4C(=O)C132` (stereo not shown), the remaining binding was 93% (cell-free assay, competition with immobilised ligand; 10 µM).
`NC(=O)[C@@H](O)C[C@H]1CCc2sc3ncnc(O[C@H]4CC[C@H](N5CCOCC5)CC4)c3c21` gave an inhibition of 9% (enzyme activity, inhibitor; 10 µM).
The remaining activity of `COCC12C(=O)NC3C4(C(OC)CC1O)C1CC5(O)C(OC)C(O)C(OC(C)=O)(C1C5OC(=O)c1ccccc1)C3(O)C(OC)C24` (stereo not shown) is reported as 114% and 108% (kinase activity, inhibitor, ProQinase kinase profiling; 25 µM; relative to: control).
`CNC(=O)C1CCN(c2cc(C)c(F)cc2NC(=O)c2ccc(-c3cc(O)ccc3C)c(C)c2)CC1` has a remaining binding of 100% (binding, competition with immobilised ligand; 1 µM).
`Nc1ncc(-c2cc(-c3cnn(CC(F)(F)F)c3)ncc2F)nc1C(=O)NC1CNCC(F)C1` (stereo not shown) gave a remaining activity of 79.6% (enzyme activity; 1 µM; relative to: DMSO control).
`CCn1cc(C(=O)O)c(=O)c2c(N)c(F)c(NC3CCCCC3)cc21` has an inhibition of 6.4% (kinase activity; 0.1 µM, together with: ATP at Km).

For quick reference, copied from above:
`CNC1C[S+]2CC[S+]3CC[S+](C1)[Ru-4]321([N]=C=S)[n]2c3ccc(OC)cc3c3c4c(c5cc(F)c[n+]1c5c32)C(=O)NC4=O` (stereo not shown) gave a remaining binding of 99% (KinomeScan; 0.1 µM; relative to: untreated).
`CN1CC[C@@H](COc2cnc(C#N)cc2-c2ccn3nc(NC(=O)C4CC4)cc3c2)C1` gave an inhibition of -6% (enzyme activity, inhibitor; 1 µM).
